{"data": "Measured values collected from several papers", "note": "A part holds a random share of what one study measured."}
{"data": "Series 1", "target": "Prothrombin, mature alpha-thrombin (F2, Homo sapiens, UniProt P00734)", "method": "aptamer microarray, sandwich", "molecule type": "DNA with 2'F-ANA", "sample": "in vitro", "tested at": "200 nM", "notes": "whole 15-mer aptamer, many near background", "with": "Cy3 exosite-II aptamer, 400 nM", "direction": "higher = stronger binding", "strand": "GGTTGGTGTGGTTGG"}
{"Modification": "2'F-ANA at 2 3 5 6 7 8 9 11 13 14 15", "mean fluorescence intensity": "53.1 a.u."}
{"Modification": "2'F-ANA at 2 3 5 6 9 10 11 12 15", "mean fluorescence intensity": "58.5 a.u."}
{"Modification": "2'F-ANA at 1 2 3 6 7 9 10 12 14 15", "mean fluorescence intensity": "55.1 a.u."}
{"Modification": "2'F-ANA at 1 2 3 4 6 8 9 11 15", "mean fluorescence intensity": "147 a.u."}
{"Modification": "2'F-ANA at 2 4 5 7 10 15", "mean fluorescence intensity": "48.9 a.u."}
{"Modification": "2'F-ANA at 1 2 3 5 8 11 12 14 15", "mean fluorescence intensity": "48.6 a.u."}
{"Modification": "2'F-ANA at 6 8 14", "mean fluorescence intensity": "189 a.u."}
{"Modification": "2'F-ANA at 1 2 7 11 12 13", "mean fluorescence intensity": "243 a.u."}
{"Modification": "2'F-ANA at 2 4 5 8 9 10 14 15", "mean fluorescence intensity": "79.5 a.u."}
{"Modification": "2'F-ANA at 1 2 4 5 9 10 12 15", "mean fluorescence intensity": "90.9 a.u."}
{"Modification": "2'F-ANA at 2 3 4 5 7 10 13 15", "mean fluorescence intensity": "47.6 a.u."}
{"Modification": "2'F-ANA at 1 2 3 4 9 10 13 15", "mean fluorescence intensity": "56.3 a.u."}
{"Modification": "2'F-ANA at 2 3 5 8 9 11", "mean fluorescence intensity": "108 a.u."}
{"Modification": "2'F-ANA at 4 7 9 10 14 15", "mean fluorescence intensity": "62.8 a.u."}
{"Modification": "2'F-ANA at 2 4 7 10 11 12 13 14", "mean fluorescence intensity": "64.8 a.u."}
{"Modification": "2'F-ANA at 1 2 3 6 9 11 12 15", "mean fluorescence intensity": "299 a.u."}
{"Modification": "2'F-ANA at 1 2 3 5 6 7 8 10 12 13 15", "mean fluorescence intensity": "60.7 a.u."}
{"Modification": "2'F-ANA at 2 3 5 11 12 14", "mean fluorescence intensity": "58.4 a.u."}
{"Modification": "2'F-ANA at 1 2 3 4 9 10 11 12 15", "mean fluorescence intensity": "100 a.u."}
{"Modification": "2'F-ANA at 1 2 3 4 5 6 7 8 11 12 13 14 15", "mean fluorescence intensity": "51.4 a.u."}
{"Modification": "2'F-ANA at 2 5 6 7 9 10", "mean fluorescence intensity": "87.7 a.u."}
{"Modification": "2'F-ANA at 3 4 5 6 8 11 13 14 15", "mean fluorescence intensity": "49.7 a.u."}
{"Modification": "2'F-ANA at 1 2 3 4 6 7 8 11 12 15", "mean fluorescence intensity": "294 a.u."}
{"data": "Series 2", "target": "Histone acetyltransferase KAT6A, winged helix 2, GST fusion (KAT6A, Homo sapiens, UniProt Q92794, residues 85-181)", "method": "protein binding microarray", "molecule type": "double-stranded DNA, one strand shown", "sample": "in vitro", "tested at": "not given", "notes": "8-mer, flanks averaged, mean of 2 arrays, mostly near background", "baseline": "not given", "direction": "higher = stronger binding", "Residues (chain)": "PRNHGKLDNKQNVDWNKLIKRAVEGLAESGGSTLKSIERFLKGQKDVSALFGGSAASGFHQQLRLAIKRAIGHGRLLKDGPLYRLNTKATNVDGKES"}
{"Strand": "AGTTGCTC", "E-score": 0.0694}
{"Strand": "GACCTGAA", "E-score": -0.0319}
{"Strand": "CAGAAGCA", "E-score": 0.0442}
{"Strand": "AATTCCTA", "E-score": -0.065}
{"Strand": "GAAGTATA", "E-score": 0.0126}
{"Strand": "CTTACCTA", "E-score": -0.126}
{"Strand": "GATCCGCA", "E-score": 0.0342}
{"Strand": "CTAGTACA", "E-score": -0.123}
{"Strand": "GCGCGGGA", "E-score": 0.186}
{"Strand": "AGATGGAC", "E-score": -0.0307}
{"Strand": "AGCTAAGA", "E-score": -0.00024}
{"Strand": "AACAGACA", "E-score": 0.167}
{"Strand": "TCACTACA", "E-score": 0.0232}
{"Strand": "CGAATTAG", "E-score": 0.112}
{"Strand": "GAGCAAGC", "E-score": 0.121}
{"Strand": "GTGATCCA", "E-score": -0.103}
{"Strand": "GTCTATCA", "E-score": -0.00668}
{"Strand": "ATGCGGCG", "E-score": 0.215}
{"Strand": "GTTGCTGA", "E-score": 0.115}
{"data": "Series 3", "target": "RNA binding protein fox-1 homolog 2, RRM domain, GST-SBP tag (RBFOX2, Homo sapiens, UniProt O43251-10, residues 100-194)", "method": "RNA Bind-n-Seq", "molecule type": "RNA", "sample": "in vitro", "tested at": "365 nM", "notes": "natural RNA segment, single round, ends assumed", "baseline": "no-protein control", "direction": "higher = stronger binding", "constant ends, left off below": "GGGAGUUCUACAGUCCGACGAUC … UGGAAUUCUCGGGUGCCAA", "Target sequence (chain)": "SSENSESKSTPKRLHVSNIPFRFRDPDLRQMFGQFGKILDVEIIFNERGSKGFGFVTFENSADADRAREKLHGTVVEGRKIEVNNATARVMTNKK"}
{"Strand": "CCCUGAGCCAGGUGCCACCACUGUAAGGAAAUGCCUUCAGAAAUUCACUGGUUCCUUCAAAGCGCUCAAGCCUCUGUGUCCUCCUUUGUCUCUUUGCUUUCCAGCCUCGC", "RBNS enrichment (R)": 0.539}
{"Strand": "ACGCUCACUCAGUGCCCACUGGGUGCCAGGCUCUGGGCUCAACCCUCUAAUAUCCACACAUUCCAUCCCCCCAGCCCCAUGUAGAUGGUGGGGUUAAGACCAUUCUUCAG", "RBNS enrichment (R)": 0.3}
{"Strand": "CUGACAACCCGUGUUUCCUUUAUUAAAAGUGAUUAGUACAACUGCUAGUUAUUUUCAACAAAUAAAGCCAUUAUGUUAAGAGGGGACUGUCCAUAGUGAGUGAAAGGUGG", "RBNS enrichment (R)": 0.459}
{"Strand": "CAAAACCAUACUUAGUCAUCACCAACAAGCUGGACUGCUUAGCUGGGCUGUUUUAUCUUCCCUGAGUGCCUGGGUCUCCCUCCCUCACUUCUGCCCUUUCCCUUCCUCCU", "RBNS enrichment (R)": 0.449}
{"Strand": "AGAUAGCUAAGUCCUAAUCUAUGGGUACAUUGUUGUGUCCCAAACCAAAAUUUUCCUUAUCCACAAUGUCCCUUCUGUCUCUUCCACUUUACAGUGGACUCGGCCACUGU", "RBNS enrichment (R)": 0.318}
{"Strand": "AAUUGGUGAUGGACAGAUGGACAGAAUGCAGAGGUACAUAGAUGAGCUGAGGCUGAUCCAGCUCCCCUGAAAUUCAGAGUGUUAACUUUGUAGACCCUGCACAAUCUCUU", "RBNS enrichment (R)": 0.54}
{"Strand": "CCCGCCUCUUGUAAUGCUCUGGUGGGUUCUUGUUUGGGAAUGCGAUAUUUUGUGGCUGGUUUAGCUAGAGAGUGAACUCUCAAAGGUAUCAAAACUGUGCUUCCAUUAUU", "RBNS enrichment (R)": 1.46}
{"Strand": "AGUUGUGUUUGUGUUAGCAUGUGGGUGAUGUAAACUACAAAUUGGGAGCUGUUCCGACCCCCGCUCCUGUGUAAGCAUUCAAUCAGUGUAACUUGCAAAAUGCAUAAACA", "RBNS enrichment (R)": 11.2}
{"Strand": "AUUGUUCUGAAAACUAAAGUUUAAAUCUUUAUGCUGUUGCUUGCUAGAUAUCCUGUUCUUUGGUAGAAAAUUCCCAUAGUCUGUACUCAAGAAGUGCCUAAAAAUGGAUU", "RBNS enrichment (R)": 1.12}
{"Strand": "UUUGGGGUUGCCAUGGCCAAUGAGAUUUAUAAUCAUGAUCCUCUUGGGUGGUAGUUCCAAAGACACUACUAAUGUGCAGAGAGCGCUCCGGCCUCUGGUGCUGGCCACUA", "RBNS enrichment (R)": 0.299}
{"Strand": "AGCCACUGCACCUGGCGGGGUCUUGCUUAUUUUAAAAGAAAUAUUCUGAUUCAUAUUUUAGGACUUUUUGUCAACGAAAUUGGUUUUGAUCCCUUUGGGUACCAUUUUUA", "RBNS enrichment (R)": 0.515}
{"Strand": "UGCACUCAAACUUAACAUUUAUCUAUUAAAAUUGCCAUUUCAUUAAGCAAUUUUCACGCACAGUAGAUUCAACUUGUUUUUUGUGCUGUUUUUUGAUUUUUGCUGACUUA", "RBNS enrichment (R)": 0.429}
{"data": "Series 4", "target": "Ras GTPase-activating protein-binding protein 1, RRM domain (G3BP1, Homo sapiens, UniProt Q13283)", "method": "RNA Bind-n-Seq", "molecule type": "RNA", "sample": "in vitro", "tested at": "1 µM", "notes": "whole 134-nt RNA, ends assumed", "with": "150 mM KCl", "baseline": "input library", "direction": "higher = stronger binding", "constant ends, left off below": "GGGAGUUCUACAGUCCGACGAUC … UGGAAUUCUCGGGUGUCAAGG", "sequence of UniProt Q13283 (whole entry, looked up)": "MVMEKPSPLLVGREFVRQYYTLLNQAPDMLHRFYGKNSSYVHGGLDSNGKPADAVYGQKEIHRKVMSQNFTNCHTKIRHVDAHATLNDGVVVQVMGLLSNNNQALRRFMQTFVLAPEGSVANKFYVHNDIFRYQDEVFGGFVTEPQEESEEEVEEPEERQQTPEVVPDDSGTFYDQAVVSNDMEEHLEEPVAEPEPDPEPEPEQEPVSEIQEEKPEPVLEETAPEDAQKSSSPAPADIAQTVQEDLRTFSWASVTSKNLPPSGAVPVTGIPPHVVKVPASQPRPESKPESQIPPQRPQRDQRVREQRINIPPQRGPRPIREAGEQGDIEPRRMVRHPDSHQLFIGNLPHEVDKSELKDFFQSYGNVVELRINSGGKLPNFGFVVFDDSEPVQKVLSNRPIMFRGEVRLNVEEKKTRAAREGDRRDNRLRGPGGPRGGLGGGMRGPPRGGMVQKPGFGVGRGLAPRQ"}
{"Strand": "CCUGUGCUACACAUCGUAUGUACCGAAUCGGGGAAAAAAAGGAAAAAAAGGAAAAAAAGGAAAGUAUUAUGUUACGCCGUUCGGAUCUGC", "log2 enrichment": 0.179}
{"Strand": "CAAGUCCUGUGCUACACAUCGUAUGUACCGAAUCGGGAGGGUUUGGGAAAAAGGGAAAGUAUUAUGUUACGCCGUUCGGAUCUGCACUUC", "log2 enrichment": 0.834}
{"Strand": "UCCUCAAGUCCUGUGCUACACAUCGUAUGUACCGAAUCGGGCGGCGGGCGGAAAGUAUUAUGUUACGCCGUUCGGAUCUGCACUUCCAGC", "log2 enrichment": -0.258}
{"Strand": "CCUGUGCUACACAUCGUAUGUACCGAAUCGGGGUUUUUGGGGAAAAAAAGGGGAAAGGGGAAAGUAUUAUGUUACGCCGUUCGGAUCUGC", "log2 enrichment": 0.675}
{"Strand": "ACCAUGCAGGUGGGCAUCUUUGGGAAGUGGGGCAAGGGGGGAAAAGGGAGGGGGGUAACACUUUGGGAACAGGUGGUCCCAGGUCGUUUC", "log2 enrichment": -0.25}
{"Strand": "UCCUGUGCUACACAUCGUAUGUACCGAAUCAAAGUGUGUGUGUAAAGUGUGUGUGUAAAAAAGUAUUAUGUUACGCCGUUCGGAUCUGCA", "log2 enrichment": -0.0923}
{"Strand": "CCUCAAGUCCUGUGCUACACAUCGUAUGUACCGAAUCGGUGGUUUUUGGAGGAAAGUAUUAUGUUACGCCGUUCGGAUCUGCACUUCCAG", "log2 enrichment": -0.157}
{"Strand": "GUCCUGUGCUACACAUCGUAUGUACCGAAUCGGGGAAAAAAAGGGGAAAGGGGUGGGGAAAGUAUUAUGUUACGCCGUUCGGAUCUGCAC", "log2 enrichment": 0.991}
{"Strand": "CAAGUCCUGUGCUACACAUCGUAUGUACCGAAUCGGAAAAGGGAAAAGGAAAAGGGAAAGUAUUAUGUUACGCCGUUCGGAUCUGCACUU", "log2 enrichment": -0.247}
{"Strand": "GCAGGAAGUAAAAACACAUGGAAAUGCUUCGGAUAGUGGCAGGGGUGGGGGUUGCUAAGGAAAGGGUGGGAUGGGAGUGGGUAAAGAGUU", "log2 enrichment": 1.36}
{"Strand": "AGUCCUGUGCUACACAUCGUAUGUACCGAAUCGGUUUUUGGUUUUUGGUUUUUGGGGAAAGUAUUAUGUUACGCCGUUCGGAUCUGCACU", "log2 enrichment": -0.119}
{"Strand": "GCAGGAAGUAAAAACAAAUGGAAAUGCUUCGGAUAGUGGCAGGGGUGGGGGUUGCUAAGGAAAGGGUGGGAUGGGAGUGGGGAAAGAGUU", "log2 enrichment": 0.683}
{"Strand": "UAUGAGGAUGAGUUGGUGCCCCUUUUUGAGAAGGCCGGACCCAUUUGGGAUCUACGUCUUAUGAUGGAUCCACUGUCCGGUCAGAAUAGA", "log2 enrichment": -0.202}
{"Strand": "GCAGGAAGUAAAAACAAAUGGAAAUGCUUCGGAUAGUGGCAGGGGUGGGGGUUGCUAAGGAAAGAAAGGGAUGGGAGUGGGUAAAGAGUU", "log2 enrichment": 1.57}
{"note": "Some of these lines once more (series 1):"}
{"Modification": "2'F-ANA at 2 3 5 8 9 11", "mean fluorescence intensity": "108 a.u."}
{"Modification": "2'F-ANA at 2 3 5 6 9 10 11 12 15", "mean fluorescence intensity": "58.5 a.u."}
{"Modification": "2'F-ANA at 1 2 3 4 6 7 8 11 12 15", "mean fluorescence intensity": "294 a.u."}
{"Modification": "2'F-ANA at 2 5 6 7 9 10", "mean fluorescence intensity": "87.7 a.u."}
{"Modification": "2'F-ANA at 6 8 14", "mean fluorescence intensity": "189 a.u."}
{"Modification": "2'F-ANA at 1 2 3 4 5 6 7 8 11 12 13 14 15", "mean fluorescence intensity": "51.4 a.u."}
